Measurements pooled from the literature.
Every numbered part comes from another study and shows a few of its results, in no order. Positions count from the first letter of the parent shown.

Set 1
Target: Max dimerization protein 1, bHLH-zipper, MAX partner unstated (MXD1, Homo sapiens, UniProt Q05195, residues 56-136)
Technique: protein-binding microarray
Molecule type: double-stranded DNA, one strand shown
Sample: in vitro
Tested at: not given
Setting: k-mer, scored over probes, only values ≥0.25
Direction: higher = stronger binding
Measurement: E-score
Target sequence (chain): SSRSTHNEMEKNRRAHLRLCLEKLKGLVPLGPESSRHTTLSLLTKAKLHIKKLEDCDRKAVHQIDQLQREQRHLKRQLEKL
ATGTGGTA: 0.303
CACGAGAG: 0.296
ACGCACGT: 0.431
ACGTGACC: 0.353
CACGTTGA: 0.428
AGCGTGAT: 0.346
ACGTGGAG: 0.415
CACATGTC: 0.453
GTGTGATA: 0.257
ACGCACAT: 0.357
CACCTGGC: 0.274
GAACCCAC: 0.271
CAGGGGGG: 0.312
CACGCCAC: 0.335
GGGACAGA: 0.253
ATGGCACG: 0.299
CATGGCCC: 0.321
GTGGCCAC: 0.289
GTGTCATA: 0.267
GTAAGGCA: 0.311
CGCCACCC: 0.311
CGTGATTC: 0.346
ATGCCACG: 0.377
GGAGACAC: 0.303
CGCACGCA: 0.324

Set 2
Target: Histone acetyltransferase KAT6A, winged helix 2, GST fusion (KAT6A, Homo sapiens, UniProt Q92794, residues 85-181)
Technique: protein binding microarray
Molecule type: double-stranded DNA, one strand shown
Sample: in vitro
Tested at: not given
Setting: 8-mer, flanks averaged, mean of 2 arrays, mostly near background
Baseline: not given
Direction: higher = stronger binding
Measurement: E-score
Construct (chain): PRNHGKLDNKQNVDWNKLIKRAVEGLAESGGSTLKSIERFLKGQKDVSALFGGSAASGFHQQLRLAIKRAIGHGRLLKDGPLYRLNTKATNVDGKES
AGATGACC: -0.0865
CATACGAA: 0.0671
AATTAGAG: 0.104
GTACATCA: -0.154
ACTAGGAC: -0.154
CATCGTAC: -0.0546
AAACGCTC: -0.105
GAGTGTTA: 0.0332
CCCTTACC: -0.239
AATTGGAC: 0.00329
CCCAGTCG: -0.119
GTGATTTA: 0.0472
ACGACCGA: -0.0542
ACTGGTAA: 0.0553
GTTAAAAA: 0.00867
TCTGAACA: -0.0753
TCGGGGAA: 0.123
GATTGCAC: 0.0805
TCACTAAA: 0.00754
AAGACTAC: -0.279
AGCACATA: 0.0218
AAACAGAC: 0.0765
AACTTGCC: -0.0669
AAACGAAG: -0.0908
AAAAGGCT: -0.108

Set 3
Target: Sal-like protein 4, full length isoform A (SALL4, Homo sapiens, UniProt Q9UJQ4, residues 1-1053)
Chain of UniProt Q9UJQ4 (whole entry, looked up): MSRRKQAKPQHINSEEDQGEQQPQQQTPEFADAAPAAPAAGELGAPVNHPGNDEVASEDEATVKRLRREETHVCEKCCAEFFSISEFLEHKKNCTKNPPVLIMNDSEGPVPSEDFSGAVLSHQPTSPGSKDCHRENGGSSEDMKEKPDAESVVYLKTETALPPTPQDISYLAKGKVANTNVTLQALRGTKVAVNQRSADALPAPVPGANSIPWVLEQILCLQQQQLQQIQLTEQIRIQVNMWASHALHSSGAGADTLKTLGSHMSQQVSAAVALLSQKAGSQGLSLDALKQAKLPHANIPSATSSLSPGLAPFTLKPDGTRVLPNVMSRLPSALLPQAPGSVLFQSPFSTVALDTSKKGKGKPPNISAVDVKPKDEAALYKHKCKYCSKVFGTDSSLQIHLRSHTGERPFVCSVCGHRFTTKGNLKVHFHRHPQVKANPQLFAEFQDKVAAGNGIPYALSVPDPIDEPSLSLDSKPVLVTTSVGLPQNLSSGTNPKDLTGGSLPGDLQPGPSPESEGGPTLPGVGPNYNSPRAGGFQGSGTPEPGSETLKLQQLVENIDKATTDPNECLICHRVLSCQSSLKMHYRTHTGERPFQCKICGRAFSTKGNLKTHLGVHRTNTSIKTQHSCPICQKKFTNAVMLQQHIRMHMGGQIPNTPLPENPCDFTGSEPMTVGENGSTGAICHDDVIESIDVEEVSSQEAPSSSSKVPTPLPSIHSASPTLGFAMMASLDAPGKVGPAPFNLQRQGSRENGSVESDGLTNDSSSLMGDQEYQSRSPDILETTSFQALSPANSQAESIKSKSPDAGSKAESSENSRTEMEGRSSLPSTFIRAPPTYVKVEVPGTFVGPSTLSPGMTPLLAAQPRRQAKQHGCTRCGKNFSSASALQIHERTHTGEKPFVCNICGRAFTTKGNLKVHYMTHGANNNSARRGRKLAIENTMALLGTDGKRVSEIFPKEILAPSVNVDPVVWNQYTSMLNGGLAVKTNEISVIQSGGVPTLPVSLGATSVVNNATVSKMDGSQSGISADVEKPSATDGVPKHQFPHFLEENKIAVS
Technique: universal PBM
Molecule type: double-stranded DNA, one strand shown
Sample: in vitro
Tested at: 600 nM
Setting: 8-mer, flanks averaged, mean of replicates
Direction: higher = stronger binding
Measurement: E-score
GCATTGCA: -0.0218
AGTCCGTC: -0.158
CAGTTGTA: -0.00441
ACCACTCA: -0.0524
AAATCGCA: 0.197
GTTACGTA: -0.0231
CGCCATGC: -0.191
GAAGCGCC: -0.206
GCTTCCAC: -0.184
CAGTTGAC: -0.0312
AGCAGAAC: 0.021
AACTAGAA: 0.236
GGCATAGA: -0.0497
CATATCTA: 0.338
ATCCATGC: 0.0828
CACTGTAA: 0.165
ATATTAAC: 0.397

Set 4
Target: RNA binding protein fox-1 homolog 2, RRM domain, GST-SBP tag (RBFOX2, Homo sapiens, UniProt O43251-10, residues 100-194)
Technique: RNA Bind-n-Seq
Molecule type: RNA
Sample: in vitro
Tested at: 365 nM
Setting: natural RNA segment, single round, ends assumed
Baseline: no-protein control
Direction: higher = stronger binding
Measurement: RBNS enrichment (R)
Shared flanks, not repeated: GGGAGUUCUACAGUCCGACGAUC … UGGAAUUCUCGGGUGCCAA
Residues (chain): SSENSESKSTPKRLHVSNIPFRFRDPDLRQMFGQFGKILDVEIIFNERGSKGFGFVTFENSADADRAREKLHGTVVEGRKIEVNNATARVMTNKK
GUAGGGCCCAACAGGGACAGGAGACUUGAGGACACCUGUCAUCAGCACUGGUGUCUAUUCCACAAGACAGAUGUCUGCCCUGCCACUCCCUUCCGUCCGUCCCUGUCCGU: 0.25
AAAAACCAAUACAGUAUAACAACUAUUUACAUAGUGCUUACAUUGUAUUAGGUGUUAUAAGCAAUCUAGAGAUGAUUUAGCAAGUAUACAGGAGGAUGUGCCUAGGUUAU: 0.471
UGGAUUUGUAUUCUGUUCAGUUGUAGUCUACACUGCAGUCUUAUUCCUGGUUCAAACUACCUCUUUAAAUUGAUUUGUCUUGUGCUGGUCUGUUAAAUCCUGCCCUCCUU: 0.598
UUCUUCAAUUUCUUUCAGGACACUUGGGUUGAAUUCAGUAAGUUUCCUCUGAAGCACCCUGAAGGGUGCCAUCCUUACAGAGCUAAGUGGAGACGUUUCCAGAUCAGCCC: 0.215
UGGCCUCUGAAGAAGGUGACUCUUCAGGUAAGACUGAUGGAGGCUACACCGACAAACCGCAGACACGCAGGAUCUGCUCAGAGAUUGCAGAAGAGCGUGGCCUCUCUUAU: 0.594
GGACACUAGGAGACUGGUUAGGACAAAAAGACCUUCUCCCUAGCCCUUCUACCCCACCUGACCUCUGCAAGAGGGGGCAUUGAUACAUCAUCGGGAAAAAACUUUGCUCC: 0.466
CUUCCUGUGAACUCACUCUGUGCCCCUGUUGUCCACAGGAUUCCAGUCUCCUGUUCUCAGUCAGGCUUCGCUUGAGGUCAGUGCUAUAAAAAUUGAAAGCUUCCAGAGAG: 0.618
CCAGAUGCGCUUCCUGAGCUCUUGGAUCAGUGCGCUGAAGGGCCGCACUUACAAGUGCCUGUCUGGAGGGUUCUCAAGUGUCAGCGCCACACAAGUCAUCCUGCCUGGCU: 0.279
GGUGAGCCGAGCUGUGGUGGCGGCUGGUUUAAAAGGGAUCCAGUUUCCAGCUGCAGGUUUGUUAGAGUCUGUUCUACAUGGGCCUGCCCUCCUGUGAUGGGCAGAGGCUC: 0.418
UUGUGUUGAUGUCUUAGGUCAUUUUCUUUUUUUCUUUCUCUUUUUUUAUUACCAGAGGAGAUGUUUUAAUAUUCAUGAGAAGAGGAACAUUUUCUAGAUUUUUUUGUUGU: 0.758
GUGGGGCGGGCUUCAUAGAGACUUGGGAAUGAGCUGAAGGUGAAACAUUUUCUCCCUGGAUUUUUACCAGUCUCACAUGAUUCCAGCCAUCACCUUAGACCACCAAGCCU: 0.224
UGAGACACAGCCUUCUGCCUCCUCGCCUCUCCUGGACUGGCUUCCUCUUUGAGAAAAUGCACAAAGCCCUGGGAGAUGACAAGCACAAGGACUGACUCAAGCUGUGUCUU: 1.02

Set 5
Target: ABI1, truncated, D143A, DHFR fusion (Arabidopsis thaliana)
Technique: DHFR PCA, deep sequencing
Sample: yeast
Setting: methotrexate growth selection, single substitutions
Together with: (+)-ABA 200 µM
Baseline: wild-type fitted maximum
Direction: higher = stronger binding
Measurement: relative binding score
Parent: PYL1, truncated, DHFR fusion (Arabidopsis thaliana); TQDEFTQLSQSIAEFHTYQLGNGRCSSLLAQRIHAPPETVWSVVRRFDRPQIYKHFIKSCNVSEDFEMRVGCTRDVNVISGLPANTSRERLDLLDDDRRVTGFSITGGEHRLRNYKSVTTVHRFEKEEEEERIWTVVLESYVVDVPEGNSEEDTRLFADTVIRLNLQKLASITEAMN; partner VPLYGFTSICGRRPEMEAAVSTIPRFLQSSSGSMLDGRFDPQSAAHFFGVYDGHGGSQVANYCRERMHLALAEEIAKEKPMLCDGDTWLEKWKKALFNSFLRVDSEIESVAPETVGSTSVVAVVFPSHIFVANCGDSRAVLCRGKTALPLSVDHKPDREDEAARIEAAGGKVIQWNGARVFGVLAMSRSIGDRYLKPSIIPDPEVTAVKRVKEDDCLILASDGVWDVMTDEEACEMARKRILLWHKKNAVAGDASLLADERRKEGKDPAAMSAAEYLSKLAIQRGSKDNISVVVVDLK
E67T: 102%
D144E: 85.5%
T173W: 65.4%
L138D: 7.38%
F15H: 96.8%
Y115R: -11.6%
N165M: 2.99%
F5S: 90%
I105R: -11.1%
E131D: 114%
F103S: 2.33%
F103W: 65.2%
T106E: 94.2%
G102P: -2.44%
P83D: 78.1%
E131T: 107%
S80I: 23.9%
V78S: 55.2%
I162V: 104%
S59Q: 96.8%
L20W: 92.3%
D3M: 103%
R32K: 102%

Set 6
Target: PABPC1L2, full length, GST fusion (mouse, UniProt A0ABA7IW68)
Technique: RNAcompete
Molecule type: RNA
Sample: in vitro
Tested at: 20 nM
Setting: 7-mer, probes averaged, single round
Baseline: mean of 7-mers
Direction: higher = stronger binding
Measurement: 7-mer Z-score
Construct (chain): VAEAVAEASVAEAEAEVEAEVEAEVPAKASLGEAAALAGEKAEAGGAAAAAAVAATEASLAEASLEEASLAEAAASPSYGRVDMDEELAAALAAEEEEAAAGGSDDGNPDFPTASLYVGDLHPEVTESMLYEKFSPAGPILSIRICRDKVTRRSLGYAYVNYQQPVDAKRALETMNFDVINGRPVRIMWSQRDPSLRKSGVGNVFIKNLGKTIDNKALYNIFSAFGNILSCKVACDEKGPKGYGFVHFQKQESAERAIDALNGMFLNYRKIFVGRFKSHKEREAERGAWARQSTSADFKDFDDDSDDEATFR
GUGCGGA: 0.133
CUCUCGC: -0.436
CCUAAAU: 0.0986
AUGAGUU: -0.291
AGGAUGC: 0.124
CGAACGC: -0.15
CCCCCCA: -0.421
AACUAGG: 0.269
GAGUCUA: -0.329
AGUACCG: -0.108
CGGGCGA: 0.408
AGAUUCC: -0.302
AUAUUUU: -0.144
AUGGGUA: 0.0569
CCGCCUC: -0.452
GCUAUGG: -0.0246
CGUCAAU: -0.278
AGGAAUU: -0.0391
UAUCUCA: -0.153
GUGACUC: -0.291
UCUAUGA: -0.266
CGGAGGG: 0.193
GGAGACG: 0.1
ACCAGCU: -0.275
CCAUUGC: -0.307

Excerpt of the above (set 6):
AGGAAUU: -0.0391
CCAUUGC: -0.307
CCUAAAU: 0.0986
GAGUCUA: -0.329
CCCCCCA: -0.421
CGGAGGG: 0.193
AUGAGUU: -0.291
